Experimental data gathered from unrelated publications.
Each line is one published result; not all experiments were run side by side. ± marks the error that the study gave.

| Structure (SMILES) | test | test system | conditions | scale | measurement | value |
| --- | --- | --- | --- | --- | --- | --- |
| O=C(O)CCC(=O)O.[2H]C([2H])([2H])Oc1cc(C)c2[nH]ccc2c1CN1CC[C@@H](C2CC2)C[C@H]1c1ccc(C(=O)O)cc1 | – | human, plasma | 300 mg once daily, day 10, multiple ascending dose, geometric mean | – | AUC(0-tau) | 115000 ng·h/mL |
| C[C@@H](O)CCOC(=O)C[C@@H](C)O | – | human | oral drink, dose not given, 90 min post dose, mean | – | systolic blood pressure | 112 mmHg |
| CNc1ccc(-c2nc3ccc(O)cc3s2)cc1 [carbon-11 labelled] | ex vivo biodistribution | APP/PS1 mouse, AD model, cortex | intravenous, 30 min | – | SUV | 0.147 ± 0.08 |
| Cc1ccc([C@@H]2O[C@H](CO)[C@@H](O)[C@H](O)[C@H]2O)cc1Cc1ccc(-c2ccc(F)cc2)s1 | measured: inorganic phosphorus | Japanese type 2 diabetes patients | 25 mg, day 2, 24 h urine collection | baseline: baseline | urinary phosphate excretion change | 48 mg |
| Cc1c(Cl)c(C)[n+]([O-])c(Cl)c1-c1noc(-c2cc(O)c(O)c([N+](=O)[O-])c2)n1 | – | healthy Caucasian subjects | oral, 50 mg, 10 days | – | TEAEs causing discontinuation | 13.3% |
| CCN(c1cc(-c2ccc(CN3CCOCC3)cc2)cc(C(=O)NCc2c(C)cc(C)[nH]c2=O)c1C)C1CCOCC1 | – | mouse xenograft, stomach | dose not given | – | organ weight | 126 mg |
| Cc1cc(NC2CCN(C(=O)OC3CCN(C(=O)/C=C/CN(C)C)C3)CC2)n2ncc(C(C)C)c2n1 (centres unmarked) | Phase I dose escalation CTCAE v4.0, measured: decreased appetite | patients with advanced solid tumours | dose not given, TIW dosing grade 3 or higher | – | patients with adverse event | 0% |
| COc1c(N2C[C@@H]3CCCN[C@@H]3C2)c(F)cc2c(=O)c(C(=O)O)cn(C3CC3)c12 | – | male Hartley guinea pigs, anaesthetized | intravenous, 1 mg/kg over 10 min, after infusion | – | heart rate | 236 ± 0.3 beats/min |
| C=CC(=O)N(C)CCOc1c(N)ncnc1-c1cc(F)cc(NC(=O)c2ccc(C3CC3)cc2F)c1C | – | human, whole blood | oral, 10 mg once daily, day 12 | – | AUC | 24 ng·h/mL |
| Nc1ncn([C@H]2C[C@H](O)[C@@H](CO)O2)c(=O)n1 | – | processed mouse plasma | 40 ng/mL, 24 h, 4 °C, re-injection stability | – | mean deviation from nominal | 3.77% |
| O=C(CCCN1CC=C(n2c(=O)[nH]c3ccccc32)CC1)c1ccc(F)cc1 | – | male Hartley guinea pigs, anaesthetized | intravenous, 0.3 mg/kg over 10 min, after infusion | – | heart rate | 200 ± 0.6 beats/min |
| Cl.[2H]C([2H])([2H])CC(=O)c1cnc(NC(=O)C2CC2)cc1Nc1cccc(-c2ncn(C([2H])([2H])[2H])n2)c1OC | geometric mean | human | oral, 100 mg single dose, fasted, liquid | – | Vz/F | 104 L |
| N#Cc1ccc2c(c1)[C@H]1CCCN(C(=O)c3ccc4[nH]cnc4c3)[C@H]1C2 | – | human | 360 mg, end of trial | – | mean ACTH level | 5.3 pmol/L |
| FC(F)(F)c1ccc(CNc2ccc(Cc3c[nH]c4ncc(Cl)cc34)cn2)cn1 | measured: Headache | patients with advanced solid tumours, non-TGCT cohort | oral, 1000 mg/day, any grade | – | treatment-related adverse events | 2% |
| O=C1C[C@@H](c2ccc(O)cc2)Oc2cc(O[C@@H]3O[C@H](C(=O)O)[C@@H](O)[C@H](O)[C@H]3O)cc(O)c21 | – | human CSF | concentration not given, mean | – | CSF concentration | not detected |
| CCC(C)n1ncn(-c2ccc(N3CCN(c4ccc(OCC5COC(Cn6cncn6)(c6ccc(Cl)cc6Cl)O5)cc4)CC3)cc2)c1=O (centres unmarked) | – | healthy human volunteers | oral, 200 mg, compound alone cohort | – | incidence of ALT increased | 7% |
| C[C@@H](N)C1CCN(S(=O)(=O)c2cccc3cnccc23)CC1 | – | healthy volunteers | 25 mg, fasted | – | participants with photophobia | 0% |
| CC(C)c1nc(N(C)S(C)(=O)=O)nc(-c2ccc(F)cc2)c1/C=C/[C@@H](O)C[C@@H](O)CC(=O)O | measured: any adverse event | healthy men | oral, dose not given, 8 days, treatment-emergent, crossover trial | – | subjects with adverse event | 13.6% |
| Cn1cnc2c(F)c(Nc3ccc(Br)cc3Cl)c(C(=O)NOCCO)cc21 | – | human, plasma | oral, dose not given, transit compartment absorption | – | peripheral volume of distribution | 190 L |

| Structure (SMILES) | test | test system | conditions | scale | measurement | value |
| --- | --- | --- | --- | --- | --- | --- |
| COc1cc2nccc(Oc3ccc(NC(=O)c4cc5c(n(-c6ccccc6)c4=O)CCCC5=O)nc3)c2cc1OC | – | relapsed or refractory AML | oral, 6 mg once daily | – | grade ≥3 Hyperkalaemia patients | 0% |
| CCOc1c([C@H](C)n2nc(C)c3c(N)ncnc32)cc(Cl)c(F)c1[C@@H]1CNC(=O)C1 | – | patients, monotherapy | oral, 45 mg once daily, cycle 1 day 15 | – | AUC(0-last) geometric mean | 41.6 µM·h |
| O=C(O)CCCOc1ccc([18F])cc1-c1cc(-c2ccccc2C(F)(F)F)n(-c2ccccc2)n1 | gamma counting | male ddY mice, heart | intravenous, 2.1 MBq, 60 min | – | radioactivity uptake | 8.7 ± 2.84 SUV |
| CNC(=O)c1cc(Oc2ccc(NC(=O)Nc3cc(C(C)(C)C)nn3-c3ccc4ncccc4c3)c(F)c2)ccn1 | measured: any AESI, worst grade ≥2 | human patients | oral, dose not given, high AUC(0-4 h) subgroup, cycles 1-2 | – | patients with adverse events | 22% |
| CN(C(=O)n1cnc(-c2cccnc2)c1)C1CCCCC1 | – | Wistar rat, midbrain | oral, 10 mg/kg, 4 h, single dose | – | tissue concentration | 37.3 ± 6.6 ng/g |
| O=C(O)/C=C/c1ccc(O)cc1 | – | human CSF | concentration not given, mean | – | CSF concentration | not detected |
| CC[C@H]1OC(=O)[C@H](C)[C@@H](O[C@H]2C[C@@](C)(OC)[C@@H](O)[C@H](C)O2)[C@H](C)[C@@H](O[C@@H]2O[C@H](C)C[C@H](N(C)C)[C@H]2O)[C@](C)(O)C[C@@H](C)C(=O)[C@H](C)[C@@H](O)[C@]1(C)O | equilibrium dialysis | human liver microsomes | 2 µM, 20 h, pH 7.4, 37 °C, 0.5 mg/mL scaled to 1 mg/mL | – | fu,mic | 0.563 |
| CCn1c(C(=O)N(C2CC2)C2CC2)cc2c3c(ncn3C)c(Nc3cc(C)n(C)n3)nc21 | – | cancer patients | oral, 200 mg single dose, day 1, 12.0 h | – | plasma concentration | 396 ng/mL |
| C=CC(=O)Nc1cc(Nc2nccc(-c3cn(C4CC4)c4ccccc34)n2)c(OC)cc1N(C)CCN(C)C | – | BALB/c nude mouse, LU0387 xenograft, blood | oral, 40 mg/kg | – | MCHC | 333.8 ± 3.25 g/L |
| CCCCCCCC(=O)c1c(OC)cc(OC)cc1C(=O)OC | – | mouse | intraperitoneal, 10 mg/kg | baseline: negative control | organ weight | no effect |
| NC1(C(=O)N[C@@H](CCO)c2ccc(Cl)cc2)CCN(c2nc[nH]c3nccc2-3)CC1 | – | metastatic CRPC patients | 480 mg b.i.d., any grade, treatment-related, added: enzalutamide 160 mg daily | – | incidence of Arthralgia | 20% |
| CNC(=O)c1ccc(-c2cnc3ncc(Cc4ccc5ncccc5c4)n3n2)cc1F | CTCAE v4.0, any causality | human cancer patients | oral, 600 mg twice daily, expansion cohort at RP2D | – | peripheral edema incidence (all grades) | 39% |
| C=CC(=O)N1CCC(c2ccc(C(N)=O)c(-c3ccc(Oc4ccccc4)cc3)n2)CC1 | – | relapsed/refractory mantle cell lymphoma patients | oral, 150 mg once daily, part, CTCAE v4.03 | – | treatment-related AE rate | 50% |
| CC(C)(C(=O)N1CCOc2c(C#N)cncc2C1)C(F)F | measured: nervous system disorders | human | oral, 10 mg, CSF pharmacokinetic cohort | – | subjects with adverse event | 66.7% |
| CN1C[C@H](COc2nccc3c(NCc4ccco4)cc(Cl)nc23)OC1=O | Langendorff heart | rabbit, isolated heart | concentration not given, positive if change >2 SD | – | heart rate | negative |
| O=C(O)CNC(=O)c1ccc(O)cc1 | – | human CSF | concentration not given, mean | – | CSF concentration | not detected |
| Cc1cc(C)c(CNC(=O)c2cc(Cl)c3c(c2C)O[C@@](C)([C@H]2CC[C@H](N(C)C)CC2)O3)c(=O)[nH]1 | – | relapsed/refractory NHL patients | oral, 200 mg once daily, onset after cycle 1 day 1 | – | adverse event Arthralgia | 16.7% |
| CCN(Cc1ccc(CNC(=O)c2csc3nc[nH]c(=O)c23)cc1)C1CCCCC1 | haemolysis | human red blood cells | 1 h, 37 °C | – | EC50 | > 100 µM |
| O=C1NCCc2nc(OCc3cccc(F)c3)ccc21 | modified Irwin test | Sprague-Dawley rat, male | oral, 100 mg/kg, 30 min | higher = stronger effect | leg weakness score | 0.2 |

| Structure (SMILES) | test | test system | conditions | scale | measurement | value |
| --- | --- | --- | --- | --- | --- | --- |
| CCN1/C(=C/C(C)=O)Sc2ccc(F)cc21 | – | cynomolgus monkey | oral, 100 mg/kg, 0.5 h post-dose | baseline: pre-dose | heart rate change | 134 ± 9.1% |
| O=C(Nc1nc2cccc(-c3ccc(CN4CCS(=O)(=O)CC4)cc3)n2n1)C1CC1 | measured: asthenia | human rheumatoid arthritis patients | oral, 300 mg once daily, 4 weeks, regardless of relatedness | – | treatment-emergent adverse events | 5% |
| COc1cc(/C=C/C(=O)OC2CC(O)(C(=O)O)CC(O)C2O)ccc1O (centres unmarked) | – | human CSF | concentration not given, mean | – | CSF concentration | not detected |
| Cc1ccc(Sc2ccccc2N2CCNCC2)c(C)c1 | measured: Nausea | healthy adult men | oral, 20 mg daily, 12 days | – | participants with TEAE | 0% |
| CC(C)(C)c1ccc(C(O)CCCN2CCC(C(O)(c3ccccc3)c3ccccc3)CC2)cc1 (centres unmarked) | – | male Hartley guinea pigs, anaesthetized | intravenous, 1 mg/kg group, baseline before infusion | – | heart rate | 221 ± 0.5 beats/min |
| C[C@@H](Oc1ccc(S(C)(=O)=O)cc1C(=O)N1C[C@@H]2C[C@]2(c2cc(C(F)(F)F)on2)C1)C(F)(F)F | – | human | oral, 25 mg | – | incidence of Dizziness | 16.7% |
| COc1cc(Nc2ncc3c(n2)-c2ccc(Cl)cc2C(c2c(F)cccc2OC)=NC3)ccc1C(=O)O | – | cancer patients | oral, dose not given, grade 3 any attribution, added: pembrolizumab | – | patients with skin hyperpigmentation | 4% |
| OCc1ccc(-c2nn(Cc3ccccc3)c3ccccc23)o1 | – | male CD1 mouse, plasma | intravenous, 5 mg/kg | – | volume of distribution at steady state | 2.68 L/kg |
| Cc1cccc(C)c1OCC(=O)N[C@@H](Cc1ccccc1)[C@@H](O)C[C@H](Cc1ccccc1)NC(=O)[C@H](C(C)C)N1CCCNC1=O | ultracentrifugation | phosphate buffer with HPMCAS | 15 min, pH 6.5, 3% BSA | – | amorphous solubility | 73.1 ± 6.6 µg/mL |
| COc1ccc2[nH]c([S@+]([O-])Cc3ncc(CO)c(OC)c3C)nc2c1 | – | human, dried plasma spots | 5 mg racemic omeprazole | baseline: baseline | AUC(0-8 h) | 0.19 µM·h |
| CC(C)n1c(Nc2cccnc2)nc2cnc(Nc3ccc(N4CCN(C)CC4)cc3)nc21 | measured: platelet count decreased | healthy male subjects | oral, 150 mg, study, added: rifampin | – | subjects with adverse event | 0% |
| CNCCOC12CC3(C)CC(C)(CC(Cn4ncc(-c5ccc(N6CCc7cccc(C(=O)Nc8nc9ccccc9s8)c7C6)nc5C(=O)O)c4C)(C3)C1)C2 | – | beagle dog, male, anaesthetised | intravenous bolus, 0.03 mg/kg, 105 min | baseline: baseline | mean arterial pressure change | -1% |
| COc1ncc(-c2nc3c(n2C(C)C)[C@H](c2ccc(Cl)cc2)N(c2cc(Cl)cn(C)c2=O)C3=O)c(OC)n1 | – | human patients, plasma | oral, 15 mg, low-dose arm, cycle 1 day 8 | – | median Tmax | 3.9 h |
| COc1ccc([C@@H](O)c2cc(-c3ncnc4cc(N5CCOCC5)ccc34)c(F)cc2Cl)nn1 | – | locally advanced rectal cancer patients | 50 mg, added: capecitabine and radiotherapy | – | drug-related lymphopenia incidence | 0% |
| CC(=O)N(C)[C@H]1CCN(C(=O)c2cnc3c(c2)C[C@](C)(c2ccc(F)cc2)N3)C1 | measured: painful arm | human | oral, 30 mg once daily | – | adverse event duration | 3 days |
| N#Cc1ccc2c(c1)[C@H]1CCCN(C(=O)c3ccc4[nH]cnc4c3)[C@H]1C2 | – | human, plasma | oral, 240 mg once daily | – | AUC(tau) at steady state | 155 µM·h |
| CCc1cc(C(=O)NC)c2nccc(N3CCc4c(cc(Cn5ccnc5)cc4-c4cn(C)nc4C(F)(F)F)C3=O)c2c1 | – | Sprague Dawley rats | oral, 100 mg/kg once daily, 7 days | – | serum AST activity | 105 ± 2.87 U/L |
| CCCCCCC#Cc1cncc(-c2nnc(SCc3ccc([N+](=O)[O-])o3)n2C)c1 | – | African green monkey cells | 72 h | – | CC50 | 33 ± 2.89 µM |

Some of these lines once more:
| Structure (SMILES) | test | test system | conditions | scale | measurement | value |
| --- | --- | --- | --- | --- | --- | --- |
| C[C@@H](N)C1CCN(S(=O)(=O)c2cccc3cnccc23)CC1 | – | healthy volunteers | 25 mg, fasted | – | participants with photophobia | 0% |
| CC(C)c1nc(N(C)S(C)(=O)=O)nc(-c2ccc(F)cc2)c1/C=C/[C@@H](O)C[C@@H](O)CC(=O)O | measured: any adverse event | healthy men | oral, dose not given, 8 days, treatment-emergent, crossover trial | – | subjects with adverse event | 13.6% |
| Cn1cnc2c(F)c(Nc3ccc(Br)cc3Cl)c(C(=O)NOCCO)cc21 | – | human, plasma | oral, dose not given, transit compartment absorption | – | peripheral volume of distribution | 190 L |
